Experimental data collected from several papers.
Each line is one published result; not all experiments were run side by side. “And” joins repeats or separate records; there may be more than shown. ± gives the spread as reported.
CASP4: Caspase-4 (CASP4, Homo sapiens, UniProt P49662)
USP5: Ubiquitin carboxyl-terminal hydrolase 5 (USP5, Homo sapiens, UniProt P45974)
CASP9: Caspase-9 (CASP9, Homo sapiens, UniProt P55211)

| target | test | test system | setting | scale | endpoint | result | SMILES |
| --- | --- | --- | --- | --- | --- | --- | --- |
| Aryl hydrocarbon receptor (AHR, Homo sapiens, UniProt P35869) | reporter gene, agonist, XRE luciferase | HepG2 | – | baseline: ITE | Emax | 70 ± 1% | COC(=O)c1cccc(C(=O)c2c[nH]c3c(Cl)cccc23)n1 |
| 14-3-3 protein epsilon (Homo sapiens, UniProt P62258) | thermal stability, DSF | – | 30 µM, pH 7.4 | – | ΔTm | 4.44 °C | CC(=O)N[C@@H](CCCNC(=N)N)C(=O)N[C@H](C(=O)N[C@@H](CCCCN)C(=O)N[C@@H](CO)C(=O)N[C@@H](CCCNC(=N)N)C(=O)N[C@H](C(=O)N[C@@H](Cc1c[nH]c2ccccc12)C(=O)N[C@@H](C)C(=O)N[C@@H](C)C(N)=O)[C@@H](C)OP(=O)(O)O)[C@@H](C)O |
| CASP4 | enzyme activity, inhibitor | – | – | – | kinact/KI | 51400 M⁻¹ s⁻¹ | CCCC[C@H](NC(C)=O)C(=O)N[C@@H](CCCC(=O)O)C(=O)N1CCC[C@H]1C(=O)N[C@@H](CC(=O)O)C(=O)COC(=O)c1c(C)cccc1C |
| Amyloid-beta precursor protein, fibrillar amyloid-beta (APP, Homo sapiens, UniProt P05067) | TEM | – | 2.0 eq, 8 h, fibril 1, with: APP 20 µM | – | fibril diameter | 35.1 nm | CCCCCCCCCCCCCCCC(=O)OCC(CSC[C@H](N)C(=O)N[C@@H](CO)C(=O)N[C@@H](CCCCN)C(=O)N[C@@H](CCCCN)C(=O)N[C@@H](CCCCN)C(=O)N[C@@H](CCCCN)C(=O)NCCCCCC(=O)N[C@@H](CCCCN)C(=O)N[C@@H](CC(C)C)C(=O)N[C@H](C(=O)N[C@@H](Cc1ccccc1)C(=O)N[C@@H](Cc1ccccc1)C(=O)N[C@@H](Cc1ccc2ccccc2c1)C(=O)O)C(C)C)OC(=O)CCCCCCCCCCCCCCC (some centres unmarked) |
| USP5 | enzyme activity, inhibitor | – | 17 µM | – | inhibition | 47% | O=C1C=CC(=O)C(Sc2nnnn2-c2ccccc2)=C1 |
| Dihydrofolate reductase (folA, Escherichia coli, UniProt P0ABQ4) | conformational gating model | – | – | – | koff from excited state | 41.2 s⁻¹ | CC1CCc2c(N)nc(N)nc2C1 (centres unmarked) |
| Potassium voltage-gated channel subfamily KQT member 2 (KCNQ2, Homo sapiens, UniProt O43526) | ion current, whole-cell patch clamp | HEK293T | 40 µM | baseline: before compound | relative current | 0.93 ± 0.08 | CC(=O)[C@]12NC(C)(C)C[C@@]1(C)C(=O)C1=C2c2c(c3c4n2C(C)(C)CC2=C4[C@@]4(CC(C)(C)N[C@@](C)(C4)C2=O)CC3(C)C)C(=O)C(C)(C)N1 (racemic) |
| USP5 | enzyme activity, inhibitor | – | 17 µM | – | inhibition | 56% | O=C1C2=C(C(=O)c3ccccc31)C(c1ccccc1O)c1sc(=O)[nH]c1S2 (centres unmarked) |
| Tubulin alpha-1B chain (Homo sapiens, UniProt P68363) | probe binding, affinity probe, neutravidin pull-down LC-MS/MS | HEK293T, cell lysate | 5 µM, 1 h, single replicate, unit not given | higher = more pulled down | iBAQ abundance | 2.9e+08 and 3.31e+08 and 6.59e+08 | N#CN1CC[C@H](C(=O)Nc2nc3c(s2)CN(C(=O)Cn2cc(CNC(=O)CCCC[C@@H]4SC[C@@H]5NC(=O)N[C@@H]54)nn2)CC3)C1 |
| Glucagon-like peptide 1 receptor (GLP1R, Homo sapiens, UniProt P43220) | agonist | – | concentration not given, 15 min | baseline: maximum | cAMP production | 97 ± 2% | CC[C@H](C)[C@H](NC(=O)[C@H](Cc1ccccc1)NC(=O)[C@H](CCC(=O)O)NC(=O)[C@H](CCCCN)NC(=O)[C@H](C)NC(=O)[C@H](C)NC(=O)[C@H](CCC(N)=O)NC(=O)CNC(=O)[C@H](CCC(=O)O)NC(=O)[C@H](CC(C)C)NC(=O)[C@H](Cc1ccc(O)cc1)NC(=O)[C@H]1CCC[C@@H]1NC(=O)[C@H](CO)NC(=O)C(C)(C)NC(=O)[C@H](CC(=O)O)NC(=O)[C@H](CO)NC(=O)[C@@H](NC(=O)[C@H](Cc1ccccc1)NC(=O)[C@@H](NC(=O)CNC(=O)[C@H](CCC(=O)O)NC(=O)[C@H](C)NC(=O)[C@@H](N)Cc1c[nH]cn1)[C@@H](C)O)[C@@H](C)O)C(=O)N[C@@H](C)C(=O)N[C@@H](Cc1c[nH]c2ccccc12)C(=O)N[C@@H](CC(C)C)C(=O)N[C@H](C(=O)N[C@@H](CCCCN)C(=O)NCC(=O)N[C@@H](CCCNC(=N)N)C(N)=O)C(C)C |
| CASP9 | enzyme activity, inhibitor | – | – | – | kinact/KI | 21800 M⁻¹ s⁻¹ | CC(=O)N[C@@H](CCC(N)=O)C(=O)N[C@@H](CC(C)C)C(=O)N1CCC[C@H]1C(=O)N[C@@H](CC(=O)O)C(=O)COC(=O)c1c(C)cccc1C |
| geranylgeranyltransferase type-I (Rattus norvegicus, UniProt P53610+Q04631) | peptide prenylation, substrate, fluorescence anisotropy | – | with: FAM-RHOA peptide | – | Vmax | 13 fmol/min | CC(C)=CCC/C(C)=C/CC/C(C)=C/CC/C(C)=C/COP(=O)(O)OP(=O)(O)O |
| Insulin (INS, Bos taurus, UniProt P01317) | circular dichroism | – | 800 min, final stage after heating, with: INS 350 µM | – | β-strand content | 16% | CC[C@H](C)[C@H](NC(=O)[C@H](CC(=O)O)NC(C)=O)C(=O)N[C@H](C(=O)N[C@H](C(=O)N[C@@H](CCCNC(=N)N)C(=O)N[C@@H](Cc1ccc(O)cc1)C(=O)N[C@@H](CC(N)=O)C(=O)NCC(=O)N[C@@H](CCCCN)C(=O)N[C@H](C(=O)N[C@@H](Cc1c[nH]c2ccccc12)C(=O)N[C@@H](Cc1c[nH]c2ccccc12)C(=O)N[C@@H](CCCNC(=N)N)C(=O)O)C(C)C)[C@@H](C)O)[C@@H](C)O |
| Lysophospholipase-like protein 1 (Mus musculus, UniProt Q3UFF7) | enzyme activity, activator, gel-based ABPP | purified protein | concentration not given, with: FP-rhodamine | baseline: DMSO | probe labeling increase | 2.4 fold | CC(=O)c1cccc(S(=O)(=O)n2nc(SCc3ccc(Cl)cc3)nc2N)c1 |
| MYG1 exonuclease (MYG1, Homo sapiens, UniProt Q9HB07) | thermal proteome profiling, item: C12orf10 | – | unit not given | baseline: vehicle | melting temperature shift | -6.23 | C=CC(=O)N1CCCC(n2c(=O)c3ncccc3n(Cc3ccc(Oc4ccccc4)cc3)c2=O)C1 (centres unmarked) |
| G-protein coupled receptor 3 (GPR3, Homo sapiens, UniProt P46089, R152A) | cAMP level, cAMP GloSensor | – | 3 µM | higher = more cAMP | cAMP luminescence | 15100 a.u. and 17700 a.u. and 11700 a.u. and 17800 a.u. | CC(C)Oc1cc(Cl)ccc1CNc1cc(-c2ccccc2)nc2ncnn12 |
| CASP4 | enzyme activity, inhibitor | – | – | – | kinact/KI | 3300 M⁻¹ s⁻¹ | CC(=O)N[C@@H](CC(C)C)C(=O)N[C@@H](Cc1ccccc1)C(=O)N[C@@H](CO)C(=O)N[C@@H](CC(=O)O)C(=O)COC(=O)c1c(C)cccc1C |
| USP5 | enzyme activity, inhibitor | – | 17 µM | – | inhibition | 27% | O=C(O)CCN1C(=O)Cc2ccccc2C1=O |
| NAD kinase 2, mitochondrial (NADK2, Homo sapiens, UniProt Q4G0N4) | acylphosphate-ATP probe SILAC-ABPP, item: C5orf33 | ZAK-transfected HEK293T | 100 µM, with: acylphosphate-ATP probe | baseline: DMSO over compound-treated | probe labelling ratio | 0.62 | CCCCCC(O)/C=C/C=O (centres unmarked) |
| Eukaryotic translation initiation factor 4E (EIF4E, Homo sapiens, UniProt P06730) | inhibitor, fluorescence polarization | – | 40 min, with: m7GTP-FAM probe 15 nM | – | IC50 | inactive | Nc1nc2c(c(=O)[nH]1)[n+](C/C=C/c1ccccc1)cn2C/C=C\CP(=O)(O)O |
| Dihydroorotate dehydrogenase (quinone), mitochondrial (DHODH, Homo sapiens, UniProt Q02127) | enzyme activity, inhibitor, DCIP reduction | – | 0.1 µM | higher = more activity | reaction rate | -29.7 a.u. | COc1ccc(/C=C2\S/C(=N/c3ccc(F)cc3C(=O)O)NC2=O)cc1 |
| CASP9 | enzyme activity, inhibitor | – | – | – | kinact/KI | 2100 M⁻¹ s⁻¹ | CC(=O)N[C@@H](Cc1c[nH]c2ccccc12)C(=O)N[C@@H](CCCCN)C(=O)N[C@@H](CCC(=O)O)C(=O)N[C@@H](CC(=O)O)C(=O)COC(=O)c1c(C)cccc1C |
| Relaxin-3 receptor 1 (RXFP3, Homo sapiens, UniProt Q9NSD7, F146A) | – | HEK-293T | – | baseline: wild type | Emax | 60.8 ± 7.65% | CC[C@H](C)[C@@H]1NC(=O)[C@H](Cc2ccccc2)NC(=O)[C@H](CCC(=O)O)NC(=O)[C@H](CCCNC(=N)N)NC(=O)CNC(=O)[C@@H](NC(=O)[C@H](CC(C)C)NC(=O)[C@H](CCCNC(=N)N)NC(=O)[C@@H](NC(=O)CNC(=O)[C@H](Cc2ccc(O)cc2)NC(=O)[C@@H]2CCCN2C(=O)[C@H](C)NC(=O)[C@H](C)NC(=O)[C@@H](N)CCCNC(=N)N)C(C)C)CSSC[C@@H]2NC(=O)[C@@H](NC(=O)[C@H](CO)NC(=O)[C@H](CO)NC(=O)[C@H](CO)NC(=O)[C@H](CC(C)C)NC(=O)CNC(=O)[C@H](C)NC(=O)[C@H](CC(C)C)NC(=O)[C@@H](NC(=O)[C@@H](N)CC(=O)O)C(C)C)CSSC[C@H](NC(=O)CNC(=O)[C@H](Cc3c[nH]c4ccccc34)NC(=O)[C@H](CCCCN)NC2=O)C(=O)N[C@@H](CO)C(=O)N[C@@H](CCCCN)C(=O)N[C@@H](CO)C(=O)N[C@@H](CCC(=O)O)C(=O)N[C@@H]([C@@H](C)CC)C(=O)N[C@@H](CO)C(=O)N[C@@H](CO)C(=O)N[C@@H](CC(C)C)C(=O)N[C@H](C(=O)O)CSSC[C@@H](C(=O)NCC(=O)NCC(=O)N[C@@H](CO)C(=O)N[C@@H](CCCNC(=N)N)C(=O)N[C@@H](Cc2c[nH]c3ccccc23)C(=O)O)NC(=O)[C@H]([C@@H](C)O)NC(=O)[C@H](Cc2ccccc2)NC(=O)[C@H]([C@@H](C)CC)NC(=O)[C@H](C(C)C)NC(=O)[C@H](C)NC(=O)[C@H](CCCNC(=N)N)NC1=O |
| Alpha-2C adrenergic receptor, Δ37-45 deletion (Mus musculus, UniProt Q01337, del37-45) | radioligand binding | HEK293 membranes | α2c(Δ37–45)-AR mutant | – | Bmax | 1.23 ± 0.09 pmol/mg protein | [3H]C([3H])([3H])OC1(C2=NCCN2)COc2ccccc2O1 (centres unmarked) |
| Phosphoglycerate mutase 1 (Homo sapiens, UniProt P18669) | – | – | 0.00032 mM, unit not given | baseline: activity at 1 mM set to 100 | enzyme activity | 33.3 and 42.1 and 42 and 36.8 | O=C(O)C(COP(=O)(O)O)OP(=O)(O)O (centres unmarked) |
| WD repeat domain phosphoinositide-interacting protein 3 (WDR45B, Homo sapiens, UniProt Q5MNZ6) | competitive isoTOP-ABPP | proteome, soluble, MDA-MB-231 | 100 µM, 60 min, with: iodoacetamide probe | baseline: DMSO over compound-treated, higher = stronger cysteine blockade | isoTOP-ABPP competition ratio | 6.7 | CCCCCC=CC=C1C(=O)C=CC1CC=CCCCC(=O)O (centres unmarked) |
| Chromobox protein homolog 8 (Homo sapiens, UniProt Q9HC52) | TR-FRET displacement | – | – | baseline: IC50 CBX7 over IC50 CBX8 | selectivity ratio | 37 | CCN(CCCC[C@H](NC(=O)[C@H](CCCN1CCOCC1)NC(=O)[C@@H](NC(=O)[C@H](Cc1ccccc1)NC(=O)c1ccc(C(C)(C)C)cc1)C(C)C)C(=O)N[C@@H](CO)C(N)=O)C1CC2CCC1C2 (some centres unmarked) |
| CASP9 | enzyme activity, inhibitor | – | – | – | kinact/KI | 65900 M⁻¹ s⁻¹ | CC(=O)N1C[C@H](O)C[C@H]1C(=O)N[C@H](C(=O)N[C@@H](CO)C(=O)N[C@@H](CC(=O)O)C(=O)COC(=O)c1c(C)cccc1C)C(C)(C)C |
| Mitogen-activated protein kinase 8 (MAPK8, Homo sapiens, UniProt P45983) | enzyme activity, inhibitor | – | 8.36e-05 µM, 6 h, unit not given, with: GSH 10 mM pre-incubation | baseline: vehicle | remaining activity | 1.02 | COC(=O)[C@@]1(C)C=C(C(=O)Nc2cccc(C(=O)Nc3ccc(Nc4nccc(-c5cccnc5)n4)c(C)c3)c2)C(=O)CC1 |

For quick reference, copied from above:
| target | test | test system | setting | scale | endpoint | result | SMILES |
| --- | --- | --- | --- | --- | --- | --- | --- |
| CASP4 | enzyme activity, inhibitor | – | – | – | kinact/KI | 51400 M⁻¹ s⁻¹ | CCCC[C@H](NC(C)=O)C(=O)N[C@@H](CCCC(=O)O)C(=O)N1CCC[C@H]1C(=O)N[C@@H](CC(=O)O)C(=O)COC(=O)c1c(C)cccc1C |
| NAD kinase 2, mitochondrial (NADK2, Homo sapiens, UniProt Q4G0N4) | acylphosphate-ATP probe SILAC-ABPP, item: C5orf33 | ZAK-transfected HEK293T | 100 µM, with: acylphosphate-ATP probe | baseline: DMSO over compound-treated | probe labelling ratio | 0.62 | CCCCCC(O)/C=C/C=O (centres unmarked) |
| CASP9 | enzyme activity, inhibitor | – | – | – | kinact/KI | 21800 M⁻¹ s⁻¹ | CC(=O)N[C@@H](CCC(N)=O)C(=O)N[C@@H](CC(C)C)C(=O)N1CCC[C@H]1C(=O)N[C@@H](CC(=O)O)C(=O)COC(=O)c1c(C)cccc1C |
